Measured values from different studies.
A part holds a random share of what one study measured.

Study 1
Target: Sal-like protein 4, full length isoform B (SALL4, Homo sapiens, UniProt Q9UJQ4-2, residues 1-616)
Technique: universal PBM
Form: double-stranded DNA, one strand shown
Sample: in vitro
Tested at: not given
Setting: 8-mer, flanks averaged, mean of replicates
Reading: higher = stronger binding
`ATCCCTCC` gave an E-score of -0.00237.
`AGGGAAAA` has an E-score of 0.183.
The E-score of `ATGTAAAT` is reported as 0.332.
`AGTTACCC` gave an E-score of -0.0131.
`CCGGAATA` gave an E-score of -0.00537.
The E-score of `AACTAAGC` is reported as -0.0307.

Study 2
Target: Histone acetyltransferase KAT6A, winged helix 2, GST fusion (KAT6A, Homo sapiens, UniProt Q92794, residues 85-181)
Technique: protein binding microarray
Form: double-stranded DNA, one strand shown
Sample: in vitro
Tested at: not given
Setting: 8-mer, flanks averaged, mean of 2 arrays, mostly near background
Baseline: not given
Reading: higher = stronger binding
Residues (chain): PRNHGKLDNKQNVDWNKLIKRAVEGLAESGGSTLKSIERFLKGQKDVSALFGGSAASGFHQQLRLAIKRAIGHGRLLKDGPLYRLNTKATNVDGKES
`GTGACTCA` has an E-score of -0.0766.
The E-score of `GACGCTAC` is reported as 0.0647.
For `CTCACTAA`, the E-score was 0.0101.
For `CACTGCAA`, the E-score was 0.106.
With `CGCCGGAG` the E-score was 0.063.

Study 3
Target: TATA-box-binding protein 1 (TBP1, Arabidopsis thaliana, UniProt P28147, residues 1-200, full length assumed)
Technique: protein-binding microarray
Form: double-stranded DNA, one strand shown
Sample: in vitro
Tested at: not given
Setting: k-mer, scored over probes, only values ≥0.25
Reading: higher = stronger binding
Target sequence (chain): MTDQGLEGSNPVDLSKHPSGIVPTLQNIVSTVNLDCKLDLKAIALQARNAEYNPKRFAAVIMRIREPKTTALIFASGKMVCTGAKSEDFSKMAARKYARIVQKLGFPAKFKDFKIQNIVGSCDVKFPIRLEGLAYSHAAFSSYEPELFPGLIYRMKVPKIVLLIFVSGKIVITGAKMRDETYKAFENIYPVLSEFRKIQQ
`GTAATTA` has an E-score of 0.305.
`GTATATA` has an E-score of 0.479.
`ATTATAG` gave an E-score of 0.361.
The E-score of `AAATATT` is reported as 0.433.

Single results of other studies
The fold induction of `PhoQ, residues 284 288 289 292 302 303 ALAMYF` is reported as 2.64 (PhoP, residues 12 14 15 18 19 AWHSL (Escherichia coli, UniProt P23836); Sort-seq, item: YFP reporter; E. coli; PhoQ-PhoP variant library, with: 10 µM Mg2+; baseline: high Mg2+ state, higher = stronger signaling).

Repeated from above (study 2):
With `CGCCGGAG` the E-score was 0.063.
